Assay results collected from several papers.
Parts stem from different laboratories: compare values within a part only.
Chain of UniProt P11802 (whole entry, looked up): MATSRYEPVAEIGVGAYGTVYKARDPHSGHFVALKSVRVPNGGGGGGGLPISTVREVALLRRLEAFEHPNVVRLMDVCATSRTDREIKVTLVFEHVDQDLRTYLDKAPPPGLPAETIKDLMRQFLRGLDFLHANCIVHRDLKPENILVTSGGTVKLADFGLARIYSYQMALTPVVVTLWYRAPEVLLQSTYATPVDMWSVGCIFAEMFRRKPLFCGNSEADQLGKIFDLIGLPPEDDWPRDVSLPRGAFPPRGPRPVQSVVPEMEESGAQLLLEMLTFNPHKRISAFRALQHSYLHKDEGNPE
Chain of UniProt Q13557 (whole entry, looked up): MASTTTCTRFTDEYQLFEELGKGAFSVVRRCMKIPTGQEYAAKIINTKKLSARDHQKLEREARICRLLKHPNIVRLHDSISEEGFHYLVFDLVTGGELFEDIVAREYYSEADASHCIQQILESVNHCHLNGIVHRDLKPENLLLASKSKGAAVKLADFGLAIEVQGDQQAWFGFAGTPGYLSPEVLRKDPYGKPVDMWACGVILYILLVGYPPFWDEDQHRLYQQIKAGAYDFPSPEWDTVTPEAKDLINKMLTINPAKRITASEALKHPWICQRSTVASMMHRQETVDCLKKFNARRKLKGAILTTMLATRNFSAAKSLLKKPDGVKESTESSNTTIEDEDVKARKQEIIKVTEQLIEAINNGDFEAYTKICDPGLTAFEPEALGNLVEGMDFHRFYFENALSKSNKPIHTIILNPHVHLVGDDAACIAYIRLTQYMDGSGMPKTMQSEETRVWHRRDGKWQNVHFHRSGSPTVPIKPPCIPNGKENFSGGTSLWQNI
Chain of UniProt P57059 (whole entry, looked up): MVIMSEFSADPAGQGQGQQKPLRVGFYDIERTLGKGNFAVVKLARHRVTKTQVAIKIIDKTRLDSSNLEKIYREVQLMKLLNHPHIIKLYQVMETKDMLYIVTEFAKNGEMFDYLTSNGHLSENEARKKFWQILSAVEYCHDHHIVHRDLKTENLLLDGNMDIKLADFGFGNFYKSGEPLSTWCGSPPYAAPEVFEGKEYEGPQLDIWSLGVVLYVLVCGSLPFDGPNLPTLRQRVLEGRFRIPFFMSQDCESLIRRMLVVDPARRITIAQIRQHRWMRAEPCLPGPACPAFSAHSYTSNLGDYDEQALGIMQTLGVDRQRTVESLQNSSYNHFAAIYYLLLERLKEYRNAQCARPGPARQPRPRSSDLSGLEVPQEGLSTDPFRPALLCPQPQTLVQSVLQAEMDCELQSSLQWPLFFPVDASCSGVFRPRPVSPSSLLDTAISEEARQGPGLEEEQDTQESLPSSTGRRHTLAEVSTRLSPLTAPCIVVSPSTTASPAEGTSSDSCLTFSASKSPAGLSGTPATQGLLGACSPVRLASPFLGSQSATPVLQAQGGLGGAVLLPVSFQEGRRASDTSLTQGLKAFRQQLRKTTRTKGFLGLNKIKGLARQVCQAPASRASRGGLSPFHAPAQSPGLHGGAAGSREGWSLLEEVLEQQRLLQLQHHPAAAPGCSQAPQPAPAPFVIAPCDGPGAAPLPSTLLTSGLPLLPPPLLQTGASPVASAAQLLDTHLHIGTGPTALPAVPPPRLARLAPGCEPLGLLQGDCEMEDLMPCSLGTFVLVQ
Chain of UniProt P21709 (whole entry, looked up): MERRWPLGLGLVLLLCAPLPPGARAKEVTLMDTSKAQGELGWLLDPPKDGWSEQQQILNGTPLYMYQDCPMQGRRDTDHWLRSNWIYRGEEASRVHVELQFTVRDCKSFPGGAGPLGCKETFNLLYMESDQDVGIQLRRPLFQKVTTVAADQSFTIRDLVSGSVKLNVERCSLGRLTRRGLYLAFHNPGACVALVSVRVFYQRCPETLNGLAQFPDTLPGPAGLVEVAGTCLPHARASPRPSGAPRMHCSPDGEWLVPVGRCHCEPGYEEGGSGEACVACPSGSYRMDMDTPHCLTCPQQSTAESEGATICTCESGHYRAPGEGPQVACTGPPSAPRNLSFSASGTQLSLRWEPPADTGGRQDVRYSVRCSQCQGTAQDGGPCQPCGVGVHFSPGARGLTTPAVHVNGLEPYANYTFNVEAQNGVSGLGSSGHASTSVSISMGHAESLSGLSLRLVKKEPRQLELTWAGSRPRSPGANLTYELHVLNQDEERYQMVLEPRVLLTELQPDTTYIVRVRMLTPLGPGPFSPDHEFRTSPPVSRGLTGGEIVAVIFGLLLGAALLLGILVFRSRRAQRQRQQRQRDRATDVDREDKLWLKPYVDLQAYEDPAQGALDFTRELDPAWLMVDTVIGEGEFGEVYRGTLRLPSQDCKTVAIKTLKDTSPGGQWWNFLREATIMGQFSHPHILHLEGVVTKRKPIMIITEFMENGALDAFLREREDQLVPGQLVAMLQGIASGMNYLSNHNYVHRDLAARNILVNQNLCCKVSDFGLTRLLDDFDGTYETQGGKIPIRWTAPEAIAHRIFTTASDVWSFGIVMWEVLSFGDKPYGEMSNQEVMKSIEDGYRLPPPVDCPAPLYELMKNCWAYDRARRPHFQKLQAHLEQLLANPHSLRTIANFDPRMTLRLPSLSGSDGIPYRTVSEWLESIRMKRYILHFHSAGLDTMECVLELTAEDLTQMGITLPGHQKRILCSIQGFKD
Chain of UniProt P36897 (whole entry, looked up): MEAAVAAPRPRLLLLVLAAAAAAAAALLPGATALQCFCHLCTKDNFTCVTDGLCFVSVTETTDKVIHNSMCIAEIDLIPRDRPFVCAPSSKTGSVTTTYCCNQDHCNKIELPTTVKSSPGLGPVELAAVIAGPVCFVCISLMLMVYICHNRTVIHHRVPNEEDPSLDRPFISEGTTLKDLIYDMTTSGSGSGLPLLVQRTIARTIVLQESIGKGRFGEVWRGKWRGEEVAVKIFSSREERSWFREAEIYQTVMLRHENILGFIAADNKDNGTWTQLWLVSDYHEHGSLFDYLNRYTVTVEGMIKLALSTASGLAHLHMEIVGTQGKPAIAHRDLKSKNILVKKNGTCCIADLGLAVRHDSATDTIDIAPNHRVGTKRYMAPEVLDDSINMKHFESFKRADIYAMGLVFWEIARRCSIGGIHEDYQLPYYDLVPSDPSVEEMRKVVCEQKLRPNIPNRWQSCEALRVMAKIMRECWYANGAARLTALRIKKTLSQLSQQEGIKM
Chain of UniProt P37173 (whole entry, looked up): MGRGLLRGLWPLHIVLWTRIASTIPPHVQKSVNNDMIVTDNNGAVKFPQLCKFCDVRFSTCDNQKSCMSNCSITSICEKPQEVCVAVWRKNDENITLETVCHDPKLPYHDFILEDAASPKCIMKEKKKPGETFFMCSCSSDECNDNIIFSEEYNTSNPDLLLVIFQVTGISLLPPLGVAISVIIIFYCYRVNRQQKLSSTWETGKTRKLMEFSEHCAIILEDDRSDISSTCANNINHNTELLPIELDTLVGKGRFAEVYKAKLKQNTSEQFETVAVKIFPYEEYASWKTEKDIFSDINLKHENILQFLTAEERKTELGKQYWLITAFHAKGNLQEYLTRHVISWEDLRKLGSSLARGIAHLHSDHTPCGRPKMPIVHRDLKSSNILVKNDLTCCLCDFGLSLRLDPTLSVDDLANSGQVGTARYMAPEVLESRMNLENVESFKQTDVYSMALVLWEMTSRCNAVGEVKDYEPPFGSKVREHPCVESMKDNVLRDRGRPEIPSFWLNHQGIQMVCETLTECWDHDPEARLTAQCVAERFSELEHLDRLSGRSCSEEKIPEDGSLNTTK
Chain of UniProt Q00535 (whole entry, looked up): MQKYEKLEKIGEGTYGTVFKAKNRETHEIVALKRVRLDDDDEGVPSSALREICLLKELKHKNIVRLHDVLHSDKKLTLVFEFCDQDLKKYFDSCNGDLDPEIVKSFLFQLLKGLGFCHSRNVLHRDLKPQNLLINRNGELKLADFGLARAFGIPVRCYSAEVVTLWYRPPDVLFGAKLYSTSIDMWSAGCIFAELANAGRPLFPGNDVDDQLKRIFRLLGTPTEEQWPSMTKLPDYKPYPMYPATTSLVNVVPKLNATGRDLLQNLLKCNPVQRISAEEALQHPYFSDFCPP

Series 1 — technique: RNA Bind-n-Seq; molecule type: RNA; sample: in vitro; tested at: 200 nM; notes: whole 134-nt RNA, ends assumed; added: 150 mM KCl; relative to: input library; direction: higher = stronger binding; measurement: log2 enrichment
Target: Fragile X messenger ribonucleoprotein 1, C-terminal low-complexity region (Fmr1, Mus musculus, UniProt P35922)
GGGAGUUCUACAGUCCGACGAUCACCAUGCAGGUGGGCAUCUUUGGGAAGUGGGGCAAGGGGGGGAUAGGGAGGGGGGUAACACUUUGGGAACAGGUCGUCCCAGGUCGUUUCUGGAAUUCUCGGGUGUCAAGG: 0.741
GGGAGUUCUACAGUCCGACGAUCACCAUGCAGGUGGGCAUCUUUGGGAAGUGGGGCAAGGGGGGGAUAGGGAGGGGGGGAACACUUUGGGAACAGGUGGUCCCAGGUCGUUUCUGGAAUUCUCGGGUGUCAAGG: 1.06
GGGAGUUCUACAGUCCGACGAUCUCCUGUGCUACACAUCGUAUGUACCGAAUCGGGGAAAAAAGGAAAAAAGGGAAAAAAGGGAAAGUAUUAUGUUACGCCGUUCGGAUCUGCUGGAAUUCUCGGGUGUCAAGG: -0.142
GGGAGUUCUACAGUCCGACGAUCACCAUGCAGGUGGGCAUCUUUGGGAAGUGGGGCAAGGGGGGGAUAGGGAGGGGGGUAACACUUUGGGAACUGGUGGUCCCAGGUCGUUUCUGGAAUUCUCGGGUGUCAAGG: 0.587
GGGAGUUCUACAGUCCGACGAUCUAACUUUAGAGGAGCAUCUGAUGGAUAUGGCAGUGGACGUGGAUUUGGGGAUGGCUAUAAUGGGUAUGGAGGAGGACCUGGAGGUGGCAAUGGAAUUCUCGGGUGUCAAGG: 0.522
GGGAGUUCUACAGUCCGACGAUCAAGGCACGUAAGUUUAAGCUUUUUUUUUUUUUAAGUUAAUGGGAAAAAUUUGAGACGCAAUACCAAUACUUAGGAUUUUGGUCUUGGUGUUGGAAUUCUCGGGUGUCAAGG: -0.186
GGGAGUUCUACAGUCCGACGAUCUCAAGUCCUGUGCUACACAUCGUAUGUACCGAAUCGGGGCCGGGGCCGGGGCCGGAAAGUAUUAUGUUACGCCGUUCGGAUCUGCACUUCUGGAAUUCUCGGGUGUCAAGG: -0.679
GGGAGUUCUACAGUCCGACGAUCCUCAAGUCCUGUGCUACACAUCGUAUGUACCGAAUCGGGUGGGGUGGGGUGGGGAAAGUAUUAUGUUACGCCGUUCGGAUCUGCACUUCCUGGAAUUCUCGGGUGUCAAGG: 1.2

Series 2 — technique: RNA Bind-n-Seq; molecule type: RNA; sample: in vitro; tested at: 90 pmol; notes: 4-mer, random 30-nt RNA, single round; added: 3 µM DMDA-PatA, 2 mM ADP, 2 mM phosphate; relative to: input library; direction: higher = stronger binding; measurement: 4-mer enrichment
Target: Eukaryotic initiation factor 4A-I (EIF4A1, Homo sapiens, UniProt P60842, residues 1-406, full length assumed)
Chain of UniProt P60842 (whole entry, looked up): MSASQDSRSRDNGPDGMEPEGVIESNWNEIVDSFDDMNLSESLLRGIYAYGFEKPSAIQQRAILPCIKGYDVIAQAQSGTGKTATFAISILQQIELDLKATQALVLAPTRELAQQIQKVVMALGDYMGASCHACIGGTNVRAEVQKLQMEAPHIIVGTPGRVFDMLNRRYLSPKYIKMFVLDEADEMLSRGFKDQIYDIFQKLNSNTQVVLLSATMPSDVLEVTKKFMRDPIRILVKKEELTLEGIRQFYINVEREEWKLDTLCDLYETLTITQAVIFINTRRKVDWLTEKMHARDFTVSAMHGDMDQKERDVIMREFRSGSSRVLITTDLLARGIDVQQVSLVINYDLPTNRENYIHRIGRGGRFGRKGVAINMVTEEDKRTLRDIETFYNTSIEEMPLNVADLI
CUAG: 0.668 fold
ACAA: 0.894 fold
AGCC: 0.577 fold
UAGA: 0.996 fold
GGCG: 2.04 fold
GUAG: 1.08 fold
AAUA: 1.03 fold
CAGA: 0.86 fold

Series 3 — tested at: 1 µM; measurement: remaining binding
SMILES: Nc1cnc(N2CCc3cc(S(=O)(=O)Nc4c(F)cc(Cl)cc4F)cc(N4CCCC4=O)c32)nc1
Serine/threonine-protein kinase SIK1 (SIK1, Homo sapiens, UniProt P57059); competition binding: 100%
Receptor-type tyrosine-protein kinase FLT3 (FLT3, Homo sapiens, UniProt P36888, D835V); cell-free assay, competition with immobilised ligand: 100%
Cyclin-dependent kinase 4, with cyclin D3 (CDK4, Homo sapiens, UniProt P11802); cell-free assay, competition with immobilised ligand: 86%
Receptor-type tyrosine-protein kinase FLT3 (FLT3, Homo sapiens, UniProt P36888, ITD); cell-free assay, competition with immobilised ligand: 92%
Death-associated protein kinase 3 (DAPK3, Homo sapiens, UniProt O43293); cell-free assay, competition with immobilised ligand: 83%
Serine/threonine-protein kinase N2 (PKN2, Homo sapiens, UniProt Q16513); cell-free assay, competition with immobilised ligand: 100%
Epidermal growth factor receptor (EGFR, Homo sapiens, UniProt P00533, del747-752/P753S); cell-free assay, competition with immobilised ligand: 71%
Ephrin type-A receptor 1 (EPHA1, Homo sapiens, UniProt P21709); cell-free assay, competition with immobilised ligand: 99%
Receptor-interacting serine/threonine-protein kinase 4 (RIPK4, Homo sapiens, UniProt P57078); cell-free assay, competition with immobilised ligand: 76%
Receptor-type tyrosine-protein kinase FLT3 (FLT3, Homo sapiens, UniProt P36888, D835Y); cell-free assay, competition with immobilised ligand: 100%
Serine/threonine-protein kinase RIO3 (RIOK3, Homo sapiens, UniProt O14730); cell-free assay, competition with immobilised ligand: 100%
Calcium/calmodulin-dependent protein kinase type II subunit delta (CAMK2D, Homo sapiens, UniProt Q13557); cell-free assay, competition with immobilised ligand: 100%
STE20/SPS1-related proline-alanine-rich protein kinase (STK39, Homo sapiens, UniProt Q9UEW8); cell-free assay, competition with immobilised ligand: 100%
Epidermal growth factor receptor (EGFR, Homo sapiens, UniProt P00533, L858R/T790M); cell-free assay, competition with immobilised ligand: 77%
Serine/threonine-protein kinase VRK2 (VRK2, Homo sapiens, UniProt Q86Y07); cell-free assay, competition with immobilised ligand: 100%

Series 4 — SMILES: CNc1cc2c(Nc3cccc(Br)c3)ncnc2cn1; observed: enzyme activity; action: inhibitor; tested at: 0.5 µM; relative to: control; measurement: remaining activity
Serine/threonine-protein kinase OSR1 (OXSR1, Homo sapiens, UniProt O95747): 88.3%
Cyclin-dependent kinase 5, with p25 (CDK5, Homo sapiens, UniProt Q00535): 82.9%
cAMP-dependent protein kinase catalytic subunit alpha (PRKACA, Homo sapiens, UniProt P17612): 104%
Death-associated protein kinase 1 (DAPK1, Homo sapiens, UniProt P53355): 80.5%
Calcium/calmodulin-dependent protein kinase type II subunit delta (CAMK2D, Homo sapiens, UniProt Q13557): 97.9%
TGF-beta receptor type-2 (TGFBR2, Homo sapiens, UniProt P37173): 105%
TGF-beta receptor type-1 (TGFBR1, Homo sapiens, UniProt P36897): 97.7%
STE20/SPS1-related proline-alanine-rich protein kinase (STK39, Homo sapiens, UniProt Q9UEW8): 94%
Protein kinase C beta type, isoform beta-I (PRKCB, Homo sapiens, UniProt P05771): 95.3%
Inhibitor of nuclear factor kappa-B kinase subunit beta (IKBKB, Homo sapiens, UniProt O14920): 98.2%
Inhibitor of nuclear factor kappa-B kinase subunit epsilon (IKBKE, Homo sapiens, UniProt Q14164): 87.1%
Cyclin-dependent kinase 4, with cyclin D1 (CDK4, Homo sapiens, UniProt P11802): 104%
Serine/threonine-protein kinase Chk2 (CHEK2, Homo sapiens, UniProt O96017): 85.7%
G protein-coupled receptor kinase 3 (GRK3, Homo sapiens, UniProt P35626): 101%
cGMP-dependent protein kinase 1, isoform beta (PRKG1, Homo sapiens, UniProt Q13976): 107%
Mitogen-activated protein kinase kinase kinase 3 (MAP3K3, Homo sapiens, UniProt Q99759): 73.3%
Mitogen-activated protein kinase 9 (MAPK9, Homo sapiens, UniProt P45984): 96.5%
Tyrosine-protein kinase Lyn, isoform B (LYN, Homo sapiens, UniProt P07948): 81.9%
Calcium/calmodulin-dependent protein kinase kinase 2 (CAMKK2, Homo sapiens, UniProt Q96RR4): 80%
Protein kinase C alpha type (PRKCA, Homo sapiens, UniProt P17252): 101%
Serine/threonine-protein kinase STK11 (STK11, Homo sapiens, UniProt Q15831): 98.3%
Death-associated protein kinase 2 (DAPK2, Homo sapiens, UniProt Q9UIK4): 136%

Repeated from above (series 4):
Calcium/calmodulin-dependent protein kinase type II subunit delta (CAMK2D, Homo sapiens, UniProt Q13557): 97.9%
Serine/threonine-protein kinase Chk2 (CHEK2, Homo sapiens, UniProt O96017): 85.7%
G protein-coupled receptor kinase 3 (GRK3, Homo sapiens, UniProt P35626): 101%
Tyrosine-protein kinase Lyn, isoform B (LYN, Homo sapiens, UniProt P07948): 81.9%
Cyclin-dependent kinase 5, with p25 (CDK5, Homo sapiens, UniProt Q00535): 82.9%
Inhibitor of nuclear factor kappa-B kinase subunit epsilon (IKBKE, Homo sapiens, UniProt Q14164): 87.1%
Cyclin-dependent kinase 4, with cyclin D1 (CDK4, Homo sapiens, UniProt P11802): 104%
Protein kinase C beta type, isoform beta-I (PRKCB, Homo sapiens, UniProt P05771): 95.3%
TGF-beta receptor type-1 (TGFBR1, Homo sapiens, UniProt P36897): 97.7%
